Published values gathered from unrelated publications.
Parts stem from different laboratories: compare values within a part only.

Block 1
Organism: Sarcocystis neurona
Effect on: parasite growth
Concentration: 10 µM
Structure (SMILES)	inhibition [%]
CC(=O)Oc1ccccc1C(=O)Nc1ncc([N+](=O)[O-])s1	-108
CSc1ccc2c(c1)N(CCC1CCCCN1C)c1ccccc1S2 (stereo not shown)	37.7
CCN(CC)CCOc1ccc(C(=C(Cl)c2ccccc2)c2ccccc2)cc1	2.3
CO[C@H]1/C=C/O[C@@]2(C)Oc3c(C)c(O)c4c(O)c(c(/C=N/N5CCN(C6CCCC6)CC5)c(O)c4c3C2=O)NC(=O)/C(C)=C\C=C\[C@H](C)[C@H](O)[C@@H](C)[C@@H](O)[C@@H](C)[C@H](OC(C)=O)[C@@H]1C	-23.9
CN(C)[C@@H]1C(O)=C(C(N)=O)C(=O)[C@@]2(O)C(O)=C3C(=O)c4c(O)ccc(Cl)c4[C@@H](O)[C@H]3C[C@@H]12	15.9
CCCOc1ccc(C(=O)OCCN(CC)CC)cc1N	-27.7
CCCN[C@H]1CCc2nc(N)sc2C1.Cl	-39.8
CC1=C(CC(=O)O)c2cc(F)ccc2/C1=C\c1ccc([S+](C)[O-])cc1 (stereo not shown)	-32.2
COC(=O)Nc1nc2ccc(C(=O)c3ccccc3)cc2[nH]1	-76.1
O=C(O)c1cc(=O)c2c(OCC(O)COc3cccc4oc(C(=O)O)cc(=O)c34)cccc2o1	-29.1
CC(C)(C)NC(=O)[C@@H]1C[C@@H]2CCCC[C@@H]2CN1C[C@@H](O)[C@H](Cc1ccccc1)NC(=O)[C@H](CC(N)=O)NC(=O)c1ccc2ccccc2n1	19.9
O=C1Nc2ccc(Cl)cc2[C@@](C#CC2CC2)(C(F)(F)F)O1	19.7
CN(C)CCCN1c2ccccc2Sc2ccc(Cl)cc21	24.3

Block 2
Matrix: 1,9-decadiene/PBS
pH: 7.4
Compound	logD
CC(C)C[C@@H]1NC(=O)[C@@H](C)NC(=O)[C@H](CCC(=O)N2CCCC2)NC(=O)[C@@H](C(C)C)NC(=O)[C@H](C)NC(=O)[C@H](CC(C)C)NC(=O)[C@@H](CC(C)C)NC1=O	-2.6
CC(C)C[C@@H]1NC(=O)[C@H](C(C)C)NC(=O)[C@H](C)NC(=O)[C@@H](CC(C)C)NC(=O)[C@@H](CCC(=O)N2CCCC2)NC(=O)[C@H](CC(C)C)NC(=O)[C@@H](CC(C)C)NC1=O	-0.955
CC(C)C[C@@H]1NC(=O)[C@H](Cc2cscn2)NC(=O)[C@H](CC(C)C)NC(=O)[C@H](C(C)C)NC(=O)[C@H](CC(C)C)NC(=O)[C@@H](CC(C)C)NC(=O)[C@H](CC(C)C)NC1=O	1.14
CC(C)C[C@@H]1NC(=O)[C@H](CC(C)C)NC(=O)[C@H](CC(C)C)NC(=O)[C@H](C(C)C)NC(=O)[C@H](C)NC(=O)[C@H](Cc2cscn2)NC(=O)[C@H](CCC(=O)N2CCCC2)NC1=O	-1.88
CC(C)C[C@@H]1NC(=O)[C@H](C)NC(=O)[C@@H](CC(C)C)NC(=O)[C@H](CC(C)C)NC(=O)[C@@H](Cc2cscn2)NC(=O)[C@H](CC(C)C)NC(=O)[C@@H](CC(C)C)NC1=O	-1.37
CC(C)C[C@@H]1NC(=O)[C@H](C)NC(=O)[C@H](C)NC(=O)[C@H](CCC(=O)N2CCCC2)NC(=O)[C@H](CC(C)C)NC(=O)[C@H](CC(C)C)NC(=O)[C@H](CC(C)C)NC1=O	-1.87
CC(C)C[C@@H]1NC(=O)[C@H](C)NC(=O)[C@H](Cc2cscn2)NC(=O)[C@H](CCC(=O)N2CCCC2)NC(=O)[C@H](CC(C)C)NC(=O)[C@H](CC(C)C)NC(=O)[C@H](CC(C)C)NC1=O	-1.52
CC(C)C[C@@H]1NC(=O)[C@H](CCC(=O)N2CCCC2)NC(=O)[C@H](CCC(=O)N2CCCC2)NC(=O)[C@@H](CCC(=O)N2CCCC2)NC(=O)[C@H](CC(C)C)NC(=O)[C@@H](CC(C)C)NC(=O)[C@H](CC(C)C)NC1=O	-2.01
CC(C)C[C@@H]1NC(=O)[C@H](CC(C)C)NC(=O)[C@@H](CC(C)C)NC(=O)[C@H](CC(C)C)NC(=O)[C@@H](Cc2cscn2)NC(=O)[C@H](C)NC(=O)[C@H](CCC(=O)N2CCCC2)NC1=O	-1.41
CC(C)C[C@@H]1NC(=O)[C@H](CC(C)C)NC(=O)[C@H](CC(C)C)NC(=O)[C@H](C(C)C)NC(=O)[C@@H](Cc2cscn2)NC(=O)[C@H](C)NC(=O)[C@H](CCC(=O)N2CCCC2)NC1=O	-2.08
CC(C)C[C@@H]1NC(=O)[C@H](Cc2cscn2)NC(=O)[C@H](CCC(=O)N2CCCC2)NC(=O)[C@H](CC(C)C)NC(=O)[C@@H](CCC(=O)N2CCCC2)NC(=O)[C@H](CC(C)C)NC(=O)[C@@H](CC(C)C)NC1=O	-1.43
CC(C)C[C@@H]1NC(=O)[C@@H](C)NC(=O)[C@H](Cc2cscn2)NC(=O)[C@H](C)NC(=O)[C@H](C(C)C)NC(=O)[C@H](CC(C)C)NC(=O)[C@@H](CC(C)C)NC1=O	-1.86
CC(C)C[C@@H]1NC(=O)[C@H](CC(C)C)NC(=O)[C@@H](CC(C)C)NC(=O)[C@H](CC(C)C)NC(=O)[C@@H](CCC(=O)N2CCCC2)NC(=O)[C@H](Cc2cscn2)NC(=O)[C@H](C)NC1=O	-1.44

Block 3
Cell line: mouse MPNST tumor cells
Technique: high-content immunofluorescence imaging
Refers to: nuclear SOX9
Concentration: 10 µM
Time: 12 h
Notes: mean of 2 replicates
Baseline: DMSO control
Reading: higher = more nuclear SOX9
SMILES	nuclear SOX9 intensity
CCOc1ccc(Nc2nc(-c3c(C)nc4ccccn34)cs2)cc1	270 % of DMSO
Clc1ccc(C(Cn2ccnc2)OCc2c(Cl)cccc2Cl)c(Cl)c1 (stereo not shown)	109 % of DMSO
CC(C)(C)NC(=O)[C@@H]1CN(Cc2cccnc2)CCN1C[C@@H](O)C[C@@H](Cc1ccccc1)C(=O)N[C@H]1c2ccccc2C[C@H]1O	93.2 % of DMSO
COc1ccc2c(c1)c(CC(=O)O)c(C)n2C(=O)c1ccc(Cl)cc1	97.4 % of DMSO
CCN(CC)CCOC(=O)C(c1ccccc1)C1CCCCC1 (stereo not shown)	162 % of DMSO
C=CCOc1ccccc1OCC(O)CNC(C)C (stereo not shown)	91.7 % of DMSO
Cc1onc(-c2c(Cl)cccc2Cl)c1C(=O)N[C@@H]1C(=O)N2[C@@H]1SC(C)(C)[C@@H]2C(=O)O	90.3 % of DMSO
O=C(CCc1ccncc1)NNC(=O)N1Cc2ccccc2Oc2ccc(Cl)cc21	98.7 % of DMSO
c1ccc([C@H]2CN3CCSC3=N2)cc1	97.5 % of DMSO
O=C1C(=O)N(Cc2ccc(Cl)c(Cl)c2)c2ccccc21	137 % of DMSO
Cc1cc(C)cc(OCC2CNC(=O)O2)c1 (stereo not shown)	136 % of DMSO

Single results of other studies
Compound	cell line	test	setting	scale	measurement	value
CN(C)C(=O)N1CC[C@H](N=C2Nc3cc(F)ccc3N(CC(F)F)c3ccc(Cl)cc32)C1	sample I colorectal tumour organoid		0.1 µM	baseline: DMSO	viability	141%
Cn1cncc1[C@@](O)(COc1ccc(C#N)cc1-c1ccc(OC(F)(F)F)cc1)c1ccc(C#N)cc1	HEK293T	high-content imaging	10 µM, 24 h		apoptotic cells	12.1%
CN(C)C(=O)/C(C#N)=C/c1ccc(-c2nc3cnc4c(ccn4C)c3n2C2CCCCC2)o1	sample I colorectal tumour organoid		0.1 µM	baseline: DMSO	viability	123%

For quick reference, copied from above (block 3):
SMILES	nuclear SOX9 intensity
Clc1ccc(C(Cn2ccnc2)OCc2c(Cl)cccc2Cl)c(Cl)c1 (stereo not shown)	109 % of DMSO
CC(C)(C)NC(=O)[C@@H]1CN(Cc2cccnc2)CCN1C[C@@H](O)C[C@@H](Cc1ccccc1)C(=O)N[C@H]1c2ccccc2C[C@H]1O	93.2 % of DMSO
COc1ccc2c(c1)c(CC(=O)O)c(C)n2C(=O)c1ccc(Cl)cc1	97.4 % of DMSO
CCN(CC)CCOC(=O)C(c1ccccc1)C1CCCCC1 (stereo not shown)	162 % of DMSO
C=CCOc1ccccc1OCC(O)CNC(C)C (stereo not shown)	91.7 % of DMSO
